Results of several laboratories.
Each line is one published result; not all experiments were run side by side. Values joined by “and” are separate records of one study, mostly repeats; a detail may differ. Numbers after ± are the reported error.

| Structure (SMILES) | assay | system | conditions | how to read | endpoint | result |
| --- | --- | --- | --- | --- | --- | --- |
| Cn1cc(Nc2nccc(-c3ccc4c(c3)CN(C3COC3)CC[C@H]4NC(=O)c3cn(C(C)(C)C)nn3)n2)cn1 | refers to: Endoplasmic Reticulum Stress Pathway | splenic B cells, Mus musculus | 30 mg/kg, together with: IgD activation | reference: vehicle, direction not given | pathway activation z-score | 0.378 |
| CS(=O)(=O)C1(CNCc2ccc(Cl)c3cccnc23)CC1 | von Frey test | mouse, spared nerve injury model | intrathecal, dose not given, 30 min, ipsilateral paw, 20% ethanol vehicle | reference: vehicle | mechanical withdrawal threshold | no effect |
| c1ccc(-c2n[nH]cc2-c2ccnc3ccccc23)nc1 | kinase binding, competitor, MIB/MS competition, refers to: CTK1 | Candida albicans cell lysate | 100 nM | reference: DMSO | log2 fold change | 0.64 |
| NC(=O)c1cnc2[nH]ccc2c1N[C@@H]1[C@@H]2CC3C[C@H]1C[C@@](O)(C3)C2 | CD4+ CD28+ naive T cells, flow cytometry | Japanese humans, peripheral blood | 20 mg single dose | reference: baseline | percent change | 0.8% |
| O=S(=O)(NCCNC/C=C/c1ccc(Br)cc1)c1cccc2cnccc12 |  | mouse zygotes | 20 µM, 96 h post-hCG |  | embryos reaching 8-cell | 0% |
| Cc1cc(C)c(CNC(=O)c2cc(Cl)c3c(c2C)O[C@@](C)([C@H]2CC[C@H](N(C)C)CC2)O3)c(=O)[nH]1 |  | relapsed/refractory NHL patients, total incl. ATLL and CTCL | oral, dose not given |  | best overall response PD | 20% |
| O=C(NO)c1ccc(CN(c2cnccn2)c2cnccn2)cc1 |  | human | dose not given, patients, paired sample, pre-treatment on A |  | plasma cytokine and chemokine levels | no effect |
| COc1cc(O)c(CC=C(C)C)c(O)c1C(=O)/C=C/c1ccc(O)cc1 | glucose tolerance test | male Tac:SW germ-free mice, high-fat diet | in diet, 60 mg/kg/day, 10 weeks, 60 min after glucose load |  | blood glucose | 303 mg/dL |
| Cc1n[nH]c2ccc(-c3cc(OC[C@@H](N)Cc4ccccc4)cnc3-c3ccoc3)cc12 | kinase binding, competitor, MIB/MS competition, refers to: SAK1 | Candida albicans cell lysate | 10 µM | reference: DMSO | log2 fold change | -0.482 |
| O=C([O-])CN1CCN(CC(=O)[O-])CCN([C@H](CO)[C@H](O)CO)CCN(CC(=O)[O-])CC1.[Gd+3] (racemic) |  | human plasma (lyophilized) | 37 °C, 3 T |  | longitudinal relaxivity (r1) | 5 ± 0.3 mM⁻¹ s⁻¹ |
| CCN1CCN(Cc2ccc(Nc3ncc(F)c(-c4cc(F)c5nc6n(c5c4)[C@H](C)CCC6)n3)nc2)CC1 |  | human advanced solid tumours | 100 mg, phase Ia monotherapy RECIST 1.1 |  | not evaluable response | 0% |
| C[C@H]1C[C@H]2CSC(N)=N[C@@]2(c2nc(NC(=O)c3ccc(OC(F)F)cn3)cs2)CO1 | refers to: Aβx-40 | healthy adults, plasma | 540 mg single dose, 8 h post-dose | reference: placebo | percent change from baseline | -68.3% |
| N#Cc1ccc2c(c1)[C@H]1CCCN(C(=O)c3ccc4[nH]cnc4c3)[C@H]1C2 |  | T2DM patients with overweight or obesity, urine | oral, 160 mg, day 14, 0-24 h, multiple dosing, adjusted geometric mean | reference: baseline day -1, -24-0 h | total urinary corticosteroid excretion | 200% |
| C=C1CC[C@H](OCCCNC(=O)CCOCCOCCOCCOCCOCCOCCOCCOCCOCCOCCOCCOCCOCCOCCOCCOCCOCCOCCOCCOCCOCCOCCOCCOCCOCCOCCOCCOCCOCCOCCOCCOCCOCCOCCOCCOCCNC(=O)CCN2C(=O)CC(SC[C@H](NC(=O)[C@H](CCCNC(=N)N)NC(=O)[C@@H]3CCCN3C(=O)[C@H](CCC(N)=O)NC(=O)[C@H](CC(C)C)NC(=O)[C@H](CCCCN)NC(=O)[C@H](C)NC(=O)[C@@H]3CCCN3C(=O)[C@@H]3CCCN3C(=O)[C@H](CCCCN)NC(=O)[C@H](CCCCN)NC(=O)[C@H](CO)NC(=O)[C@H](CCC(=O)O)NC(=O)[C@H](CCCCN)NC(=O)[C@H](CCCNC(=N)N)NC(=O)[C@H](CCC(N)=O)NC(=O)[C@H](CCC(N)=O)NC(=O)[C@@H](NC(=O)[C@H](CCCNC(=N)N)NC(=O)[C@H](CCC(N)=O)NC(=O)[C@H](Cc3c[nH]cn3)NC(=O)[C@H](CCC(=O)O)NC(=O)[C@@H]3CCCN3C(=O)[C@H](CO)NC(=O)[C@H](CC(C)C)NC(=O)[C@H](Cc3ccccc3)NC(=O)[C@H](CNC(=O)CCCCCCC)NC(=O)[C@H](CO)NC(=O)CN)C(C)C)C(=O)O)C2=O)C/C1=C/C=C1\CCC[C@]2(C)[C@@H]([C@H](C)CCCC(C)(C)O)CC[C@@H]12 (stereo partly drawn) |  | C57BL/6J mice, LLC tumour-induced cachexia | daily | reference: pair-fed tumour-bearing vehicle | forelimb grip strength | decreased |
| N#Cc1ccc2c(c1)[C@H]1CCCN(C(=O)c3ccc4[nH]cnc4c3)[C@H]1C2 | refers to: body weight | human | 240 mg once daily, day 28, adjusted mean | reference: placebo | change from baseline | -1.25 kg |
| COc1ncnn2ccc(-c3cnc4nc(C)n(Cc5nnc([C@@H](C)F)o5)c4c3)c12 |  | relapsed or refractory AML, MDS | dose not given, splicing factor mutation-negative |  | best overall response PR | 0% |
| CNCc1cc(-c2ccccc2F)n(S(=O)(=O)c2cccnc2)c1 | histamine-stimulated acid secretion | pylorus-ligated rat | oral, 2 mg/kg, together with: histamine |  | inhibition | 48.1% |
| OC(CCN1CCCCC1)(c1ccccc1)C1CC2C=CC1C2 (stereo not drawn) | resting-state EEG | healthy elderly humans | oral, 2 mg, eyes closed, LS mean |  | EEG gamma power, O2 Pz | 1 µV² |
| Cc1noc(C)c1-c1cc(C(O)(c2ccccn2)c2ccccn2)c2nc(C3CC3)[nH]c2c1 | refers to: HEXIM1 expression | human, peripheral blood | 2 mg, day 1, 1599 study |  | maximum induction | 19.4% |
| COc1ccc2c(c1)CN(Cc1ccc(C(=O)O)cc1)CCS2 |  | exercised mdx mice | 10 mg/kg, 4 weeks |  | forelimb grip strength | 0.164 ± 0.007 kgf |
| CO[C@H]1C[C@@H]2CC[C@@H](C)[C@@](O)(O2)C(=O)C(=O)N2CCCC[C@H]2C(=O)O[C@H]([C@H](C)C[C@@H]2CC[C@@H](OC(=O)NCCOCCOCCOCCOCCOCCOCCOCCOCCC(=O)N3CCc4cc(Cn5nc(-c6ccc7oc(N)nc7c6)c6c(N)ncnc65)ccc4C3)[C@H](OC)C2)C[C@@H](O)[C@H](C)/C=C(\C)[C@@H](O)[C@@H](OC)C(=O)[C@H](C)C[C@H](C)/C=C/C=C/C=C/1C | RECIST v1.1 | human | dose not given |  | duration of response | > 6 months |
| N#Cc1ccn2c(-c3ccncc3)c(-c3ccc(F)cc3)nc2c1 | kinase binding, competitor, MIB/MS competition, refers to: CKA1 | Candida albicans cell lysate | 1 µM | reference: DMSO | log2 fold change | 0.289 |
| Cc1cc(C)c(CNC(=O)c2cc(Cl)c3c(c2C)O[C@@](C)([C@H]2CC[C@H](N(C)C)CC2)O3)c(=O)[nH]1 |  | relapsed/refractory ATLL patients | dose not given, modified ATLL criteria 2009 |  | best overall response stable disease | 7% |

| Structure (SMILES) | assay | system | conditions | how to read | endpoint | result |
| --- | --- | --- | --- | --- | --- | --- |
| N#Cc1ccc2c(-c3ccncc3)c(-c3ccc(F)cc3)nn2c1 | kinase binding, competitor, MIB/MS competition, refers to: CDC7 | Candida albicans cell lysate | 10 µM | reference: DMSO | log2 fold change | -0.367 |
| O=C1CCC(N2C(=O)c3ccccc3C2=O)C(=O)N1 (racemic) | deuterium-hydrogen exchange | aqueous phosphate buffer | pH 7.4, 37 °C |  | exchange rate constant | -0.0565 h⁻¹ |
| CCc1c(C)nc(-c2ccc(Cl)s2)nc1Nc1ccc(CC(=O)O)cc1 |  | C57BL/6J mouse, high-fat diet MASH model, liver | intraperitoneal, 0.3 mg/kg daily, 60% fat diet for 12 weeks, dosed final four weeks | reference: untreated | PPAR-gamma expression | decreased |
| Cc1c(C)n(Cc2cccc(OC(C)(C)C(=O)O)c2)c2ccc(C(=O)N[C@@H](C)c3ccc(C(C)(C)C)cc3)cc12 |  | C57BL/6 mouse, diet-induced obesity, proximal tibia | dose not given |  | bone volume | 0.598 ± 0.088 mm3 |
| CCCCc1nc2c(N)nc3ccccc3c2n1Cc1ccc(CN)cc1 | IL-6 release, ELISA | PBMC, human | 24 h |  | concentration | ~10 µM |
| C[C@H]1O[C@@H](O[C@H]2CC[C@@]3(C)[C@@H](CC[C@]4(C)[C@@H]3C=C[C@]35OC[C@@]6(CCC(C)(C)C[C@H]63)[C@@H](O)C[C@]54C)[C@]2(C)CO)[C@H](O)[C@@H](O[C@@H]2O[C@H](CO)[C@@H](O)[C@H](O)[C@H]2O)[C@H]1O |  | pair-fed control mice, no ethanol, plasma | oral, 15 mg/kg/day |  | triglyceride level | 0.757 mM and 0.694 mM and 0.779 mM and 0.722 mM and 0.675 mM and 0.748 mM |
| O[C@H]1CCCN[C@@H]1CCCn1cnc2c(Cl)c(Cl)ccc21 | ELISA, refers to: Pro-C3 | healthy human volunteers, serum | intraduodenal, 50 mg twice daily, day 14, multiple ascending dose |  | maximum reduction | 9.22% |
| OC[C@H]1O[C@@H](c2ccc(Cl)c(Cc3ccc(O[C@H]4CCOC4)cc3)c2)[C@H](O)[C@@H](O)[C@@H]1O |  | Japanese type 1 diabetes patients | 25 mg, day 7, 168 h | reference: baseline | diastolic blood pressure change | 2.1 mmHg |
| CC(=O)O[C@@]12CO[C@@H]1C[C@H](O)[C@@]1(C)C(=O)[C@H](O)C3=C(C)[C@@H](OC(=O)[C@H](O)[C@@H](NC(=O)OC(C)(C)C)c4ccccc4)C[C@@](O)([C@@H](OC(=O)c4ccccc4)[C@H]21)C3(C)C | Western blot | male NRG mouse, CWR22Rv1 xenograft, tumour | dose not given, day 16 |  | AR-V7 protein level | decreased |
| CN[C@@H]1COc2c(S(=O)(=O)NC(=O)Nc3c4c(cc5c3CCC5)CCC4)cnn2C1 | refers to: IL-1β | human participants, whole blood ex vivo | 300 mg twice daily, multiple doses, 96 h, together with: LPS/ATP | reference: baseline | inhibition | 97.7% |
| CN(C)C(=O)Oc1cccc([N+](C)(C)C)c1 | neuromuscular block reversal | rat | dose not given, 4 (unit not given), together with: cisatracurium | reference: T1 twitch | train-of-four ratio | 8.16 |
| C=CC(=O)N1CCC(c2ccc(C(N)=O)c(-c3ccc(Oc4ccccc4)cc3)n2)CC1 | tumour response, Lugano classification | patients with relapsed/refractory MCL | dose not given, independent review, 16.4 months follow-up |  | CR | 24.5% |
| C[C@H](Oc1ccc(Br)cc1-c1ccon1)C(=O)O | first response latency | human, tibialis anterior muscle | 1200 mg, 15 Hz, single ascending dose |  | difference from placebo | 0.306% |
| Cc1ccc(C(=O)OCc2ccc([C@@H](CN)C(=O)Nc3ccc4cnccc4c3)cc2)c(C)c1 | tonometry | Macaca cyclopis, ocular normotensive | ocular, 0.02%, 24 h |  | IOP | 18.3 mmHg |
| CCCCc1oc2ccccc2c1C(=O)c1cc(I)c(OCCN(CC)CC)c(I)c1 | Holter ECG | dog, persistent AF model | iv, 3 mg/kg |  | time to AF recurrence | 12.9 h |
| C=CCn1c(=O)c2cnc(Nc3ccc(N4CCN(C)CC4)cc3)nc2n1-c1ccc2c(n1)[C@@](O)(CC)CC2 |  | TOV21G xenograft, BALB/c nude mice | oral, 80 mg/kg once daily x 19, day 20 |  | tumour volume difference | -19.3 ± 6.4 mm3 |
| O=P(O)(O)C(Cl)(Cl)P(=O)(O)O |  | Mus musculus, subarachnoid haemorrhage, hippocampal fissure | concentration not given, day 1 | reference: total area | GFAP-positive area | 4.21% and 3.26% and 4.86% |
| O=C(O)CNC(=O)Cc1ccccc1 |  | ventricular cardiomyocytes, C57BL/6 mouse | dose not given, 0.404 s |  | sarcomere length | 1.72 µm |
| CCc1cnc(NC(=O)c2cc(S(=O)(=O)N3CCOCC3)ccc2N(C)C2CCCC2)s1 |  | mouse H1975-OR xenograft | dose not given, 90 days, tumour below 500 mm^3 |  | survival | 60% |
| CC(C)NCC(O)c1ccc(O)c(O)c1 (stereo not drawn) |  | ventricular cardiomyocytes, C57BL/6 mouse | dose not given, 0.5 s |  | sarcomere length | 1.52 µm |
| COc1ccccc1[C@H](Cn1c(=O)n(C(C)(C)C(=O)O)c(=O)c2c(C)c(-c3ncco3)sc21)OC1CCOCC1 |  | human | 200 mg, post-treatment |  | blood Triglycerides level | 127 ± 54.7 mg/dL |
| COc1ncc(-c2nc3c(n2C(C)C)[C@H](c2ccc(Cl)cc2)N(c2cc(Cl)cn(C)c2=O)C3=O)c(OC)n1 | International Working Group criteria | human acute myeloid leukemia patients | oral, 250 mg, response Unknown, high-dose, recommended dose for expansion |  | best overall response | 0% |
